{"data": "Measurements collected from several papers", "note": "Each numbered part is a random draw from the data of one study; scales do not carry over between parts. Changes are numbered by the printed parent chain."}
{"data": "Sample 1", "target": "CCNB3, cyclin fold, Cln2 fusion (human)", "method": "yeast growth competition, sequencing", "sample": "yeast", "notes": "strong parent motif", "reference": "not given", "reading": "higher = stronger binding", "parent": "RBL2 docking peptide (human); STTRRRLFVENDS; partner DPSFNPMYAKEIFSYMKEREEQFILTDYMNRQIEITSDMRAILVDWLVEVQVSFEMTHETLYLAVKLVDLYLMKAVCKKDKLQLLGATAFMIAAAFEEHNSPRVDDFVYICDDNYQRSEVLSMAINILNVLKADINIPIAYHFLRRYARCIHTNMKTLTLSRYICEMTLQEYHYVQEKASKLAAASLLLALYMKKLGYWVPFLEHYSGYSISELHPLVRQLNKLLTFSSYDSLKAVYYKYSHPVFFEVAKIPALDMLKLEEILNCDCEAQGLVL"}
{"Substitution": "D12I", "normalised enrichment score": 0.909}
{"Substitution": "E10P", "normalised enrichment score": 1.31}
{"Substitution": "V9T", "normalised enrichment score": 1.38}
{"Substitution": "R5A L7A", "normalised enrichment score": -0.00142}
{"data": "Sample 2", "target": "Histone acetyltransferase KAT6A, winged helix 2, GST fusion (KAT6A, Homo sapiens, UniProt Q92794, residues 85-181)", "method": "protein binding microarray", "form": "double-stranded DNA, one strand shown", "sample": "in vitro", "concentration": "not given", "notes": "8-mer, flanks averaged, mean of 2 arrays, mostly near background", "reference": "not given", "reading": "higher = stronger binding", "Target sequence (chain)": "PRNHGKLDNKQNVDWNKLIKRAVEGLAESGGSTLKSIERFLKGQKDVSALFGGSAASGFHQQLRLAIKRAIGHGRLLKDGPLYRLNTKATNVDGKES"}
{"Oligonucleotide": "CAAGCCCA", "E-score": -0.172}
{"Oligonucleotide": "GTATTGGA", "E-score": -0.115}
{"Oligonucleotide": "ATTCACCA", "E-score": 0.0746}
{"Oligonucleotide": "CGACTTGA", "E-score": -0.136}
{"Oligonucleotide": "AACAAGCC", "E-score": -0.113}
{"data": "Sample 3", "target": "RNA binding protein fox-1 homolog 2, RRM domain, GST-SBP tag (RBFOX2, Homo sapiens, UniProt O43251-10, residues 100-194)", "method": "RNA Bind-n-Seq", "form": "RNA", "sample": "in vitro", "concentration": "365 nM", "notes": "natural RNA segment, single round, ends assumed", "reference": "no-protein control", "reading": "higher = stronger binding", "all sequences stand within": "GGGAGUUCUACAGUCCGACGAUC … UGGAAUUCUCGGGUGCCAA"}
{"Oligonucleotide": "UCAGGGCCAAGCGGGGGCGUGGCUGGCCCUUCAGGUCAGGCCAGUGGGCCUGGUAGCACAUGUCUGUCCUCAGCCGGACAGAUGCUUUCUCUCCUGGUUUGCAGCUGUCU", "RBNS enrichment (R)": 1.31}
{"Oligonucleotide": "GCCGUGGUCCUGGGAGCCAGGAAGACUCCGCAGUGGGUGAGAAUGAAAACUUGAGACUCCCAAGUUCUGGGCCAGCCCAUUGCUCUGGGCUGUUUUAAAGCCCAUUUCAC", "RBNS enrichment (R)": 0.508}
{"Oligonucleotide": "UAUUUAGGCUUAUCCUGUUUUGAAAUGAUGGUAGUCAUCUUUCUUACUGCUACUUUCAUGUUGCUUUCUAGAAAACAGCAUUUCAUUCCAAAAUAACUAGGAUCUGCAUU", "RBNS enrichment (R)": 0.382}
{"Oligonucleotide": "CGAUGAUGCUCCGCCUUUACCCGUUCAGUUGGGAGCUUAUUGUGAGAUUGGAUCAUUUCCUUUUGAGUGUUCUUCUCUUUGGUACAAAAGCUAUUGUGGGUGACAGGAGC", "RBNS enrichment (R)": 0.573}
{"Oligonucleotide": "AACUUUUCUUGGCUUAUAAGGUCCAAUUUCUGUGUCUGGAGGUAUAAAAAAAUUACACUGACUACUGGUGGCUUAGUACUUUAUGUUGUCUCUCACCUAAAUAGUUCCAC", "RBNS enrichment (R)": 0.389}
{"data": "Mixed results"}
{"Molecule": "PhoQ, residues 284 288 289 292 302 303 GANMMA", "target": "PhoP, residues 12 14 15 18 19 QWHVF (Escherichia coli, UniProt P23836)", "assay": "Sort-seq, measured: YFP reporter", "system": "E. coli", "conditions": "PhoQ-PhoP variant library, added: 10 µM Mg2+", "how to read": "reference: high Mg2+ state, higher = stronger signaling", "measurement": "fold induction", "value": 1.28}
{"note": "Repeated from above (mixed results):"}
{"Molecule": "PhoQ, residues 284 288 289 292 302 303 GANMMA", "target": "PhoP, residues 12 14 15 18 19 QWHVF (Escherichia coli, UniProt P23836)", "assay": "Sort-seq, measured: YFP reporter", "system": "E. coli", "conditions": "PhoQ-PhoP variant library, added: 10 µM Mg2+", "how to read": "reference: high Mg2+ state, higher = stronger signaling", "measurement": "fold induction", "value": 1.28}
